# Published values collected from several papers.
# HLA class I histocompatibility antigen, A alpha chain: HLA class I histocompatibility antigen, A alpha chain (Homo sapiens, UniProt P04439)
# 4'-phosphopantetheinyl transferase PptT: 4'-phosphopantetheinyl transferase PptT (Mycobacterium tuberculosis, UniProt O33336)
# UniProt O33336, sequence (whole entry, looked up): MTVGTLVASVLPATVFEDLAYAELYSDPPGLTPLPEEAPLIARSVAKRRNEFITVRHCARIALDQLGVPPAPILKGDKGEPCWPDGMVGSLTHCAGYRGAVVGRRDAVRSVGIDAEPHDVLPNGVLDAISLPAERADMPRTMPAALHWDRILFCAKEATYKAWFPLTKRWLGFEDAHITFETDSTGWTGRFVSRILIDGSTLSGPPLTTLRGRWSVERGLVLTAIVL
# TEAD4: Transcriptional enhancer factor TEF-3 (TEAD4, Homo sapiens, UniProt Q15561)
# UniProt Q15561, sequence (whole entry, looked up): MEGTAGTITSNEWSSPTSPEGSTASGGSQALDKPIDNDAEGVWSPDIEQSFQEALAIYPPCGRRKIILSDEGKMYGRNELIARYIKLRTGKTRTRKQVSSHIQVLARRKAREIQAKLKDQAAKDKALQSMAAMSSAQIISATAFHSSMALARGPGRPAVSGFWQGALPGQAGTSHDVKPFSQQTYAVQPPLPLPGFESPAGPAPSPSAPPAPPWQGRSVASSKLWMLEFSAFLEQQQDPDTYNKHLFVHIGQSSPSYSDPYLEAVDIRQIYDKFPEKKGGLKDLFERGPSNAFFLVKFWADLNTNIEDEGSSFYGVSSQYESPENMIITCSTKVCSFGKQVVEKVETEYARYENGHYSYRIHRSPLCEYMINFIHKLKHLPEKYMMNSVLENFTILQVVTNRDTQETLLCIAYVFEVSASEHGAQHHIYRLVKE
# HTR1F: 5-hydroxytryptamine receptor 1F (HTR1F, Homo sapiens, UniProt P30939)
# UniProt P30939, sequence (whole entry, looked up): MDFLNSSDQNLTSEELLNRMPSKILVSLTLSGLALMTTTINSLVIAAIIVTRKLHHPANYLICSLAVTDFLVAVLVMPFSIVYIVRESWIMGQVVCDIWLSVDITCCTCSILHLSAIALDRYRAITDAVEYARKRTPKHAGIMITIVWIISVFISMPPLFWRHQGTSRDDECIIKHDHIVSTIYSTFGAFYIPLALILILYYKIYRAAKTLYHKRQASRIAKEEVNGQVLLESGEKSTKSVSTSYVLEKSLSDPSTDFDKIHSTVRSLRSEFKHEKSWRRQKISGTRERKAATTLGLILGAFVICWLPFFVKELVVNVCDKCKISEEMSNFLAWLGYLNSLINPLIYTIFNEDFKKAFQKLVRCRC
# UniProt Q9UGM1, sequence (whole entry, looked up): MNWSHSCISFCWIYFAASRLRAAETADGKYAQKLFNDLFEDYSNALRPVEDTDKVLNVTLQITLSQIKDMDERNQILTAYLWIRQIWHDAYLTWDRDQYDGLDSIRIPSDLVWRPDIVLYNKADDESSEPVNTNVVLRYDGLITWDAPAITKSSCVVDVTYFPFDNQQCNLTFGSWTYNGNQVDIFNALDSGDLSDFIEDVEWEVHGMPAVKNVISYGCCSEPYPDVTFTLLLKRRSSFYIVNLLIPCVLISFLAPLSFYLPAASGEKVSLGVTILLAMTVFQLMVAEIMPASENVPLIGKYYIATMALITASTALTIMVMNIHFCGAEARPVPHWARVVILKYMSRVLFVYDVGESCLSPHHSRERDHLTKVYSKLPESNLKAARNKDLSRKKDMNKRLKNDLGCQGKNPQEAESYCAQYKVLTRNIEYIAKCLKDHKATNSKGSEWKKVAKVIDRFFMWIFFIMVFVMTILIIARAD
# UniProt P30048, sequence (whole entry, looked up): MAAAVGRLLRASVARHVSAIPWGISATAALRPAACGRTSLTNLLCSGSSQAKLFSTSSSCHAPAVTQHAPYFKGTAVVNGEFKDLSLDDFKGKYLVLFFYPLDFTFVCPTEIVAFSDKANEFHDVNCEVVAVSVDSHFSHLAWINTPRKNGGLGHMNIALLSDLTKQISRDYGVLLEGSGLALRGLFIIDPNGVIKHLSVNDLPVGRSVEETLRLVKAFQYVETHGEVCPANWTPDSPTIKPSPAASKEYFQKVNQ
# UniProt Q96NX5, sequence (whole entry, looked up): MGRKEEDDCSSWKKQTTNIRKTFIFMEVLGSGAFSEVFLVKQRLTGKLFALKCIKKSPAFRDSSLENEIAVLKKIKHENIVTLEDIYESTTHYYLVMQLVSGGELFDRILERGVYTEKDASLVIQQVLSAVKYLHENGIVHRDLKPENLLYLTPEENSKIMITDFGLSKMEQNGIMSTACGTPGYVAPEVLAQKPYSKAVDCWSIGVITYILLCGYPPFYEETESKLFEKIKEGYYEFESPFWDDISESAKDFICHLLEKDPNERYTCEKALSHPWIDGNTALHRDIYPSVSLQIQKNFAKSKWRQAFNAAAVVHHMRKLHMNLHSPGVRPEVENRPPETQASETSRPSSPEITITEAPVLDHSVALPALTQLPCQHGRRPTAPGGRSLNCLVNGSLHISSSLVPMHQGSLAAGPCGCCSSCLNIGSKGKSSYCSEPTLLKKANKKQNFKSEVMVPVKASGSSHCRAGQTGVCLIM
# UniProt Q9P0L2, sequence (whole entry, looked up): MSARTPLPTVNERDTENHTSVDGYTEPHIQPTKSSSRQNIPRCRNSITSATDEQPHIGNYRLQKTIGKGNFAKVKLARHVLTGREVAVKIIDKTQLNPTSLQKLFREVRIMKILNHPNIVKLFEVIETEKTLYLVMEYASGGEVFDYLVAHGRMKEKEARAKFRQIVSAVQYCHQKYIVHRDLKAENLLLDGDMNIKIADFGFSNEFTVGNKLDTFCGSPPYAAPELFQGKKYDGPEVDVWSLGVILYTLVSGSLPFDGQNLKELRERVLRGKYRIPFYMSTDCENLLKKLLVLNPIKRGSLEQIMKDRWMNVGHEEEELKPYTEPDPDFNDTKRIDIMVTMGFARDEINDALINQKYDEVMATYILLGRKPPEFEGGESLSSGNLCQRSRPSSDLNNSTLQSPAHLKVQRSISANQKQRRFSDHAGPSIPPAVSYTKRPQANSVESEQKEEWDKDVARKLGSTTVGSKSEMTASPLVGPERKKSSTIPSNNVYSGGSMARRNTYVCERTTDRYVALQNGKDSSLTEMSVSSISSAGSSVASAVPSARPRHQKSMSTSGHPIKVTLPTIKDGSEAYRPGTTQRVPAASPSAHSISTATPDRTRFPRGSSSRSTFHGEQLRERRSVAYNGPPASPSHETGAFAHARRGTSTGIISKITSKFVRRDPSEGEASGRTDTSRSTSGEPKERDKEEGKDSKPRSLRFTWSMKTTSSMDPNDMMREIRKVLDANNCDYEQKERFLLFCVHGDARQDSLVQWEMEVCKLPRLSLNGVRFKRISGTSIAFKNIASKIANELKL
# UniProt P15090, sequence (whole entry, looked up): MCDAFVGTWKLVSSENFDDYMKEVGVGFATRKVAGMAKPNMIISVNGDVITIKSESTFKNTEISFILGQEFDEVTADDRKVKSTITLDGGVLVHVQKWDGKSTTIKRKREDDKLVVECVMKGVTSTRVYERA
# UniProt Q99755, sequence (whole entry, looked up): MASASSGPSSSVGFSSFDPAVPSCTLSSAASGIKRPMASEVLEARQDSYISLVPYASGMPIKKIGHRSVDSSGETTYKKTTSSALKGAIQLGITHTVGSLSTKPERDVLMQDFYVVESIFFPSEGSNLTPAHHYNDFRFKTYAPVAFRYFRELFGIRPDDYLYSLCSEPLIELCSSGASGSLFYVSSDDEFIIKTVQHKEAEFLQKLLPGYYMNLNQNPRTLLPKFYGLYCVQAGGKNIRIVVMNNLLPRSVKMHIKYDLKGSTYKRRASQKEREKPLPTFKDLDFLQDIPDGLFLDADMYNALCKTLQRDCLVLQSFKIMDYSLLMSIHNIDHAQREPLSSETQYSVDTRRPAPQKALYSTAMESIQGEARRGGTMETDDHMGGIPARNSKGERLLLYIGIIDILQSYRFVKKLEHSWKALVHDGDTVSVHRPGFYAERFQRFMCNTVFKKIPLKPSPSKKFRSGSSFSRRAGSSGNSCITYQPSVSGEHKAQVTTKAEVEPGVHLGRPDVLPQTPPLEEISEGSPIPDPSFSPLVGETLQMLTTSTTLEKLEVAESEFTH
# UniProt Q16581, sequence (whole entry, looked up): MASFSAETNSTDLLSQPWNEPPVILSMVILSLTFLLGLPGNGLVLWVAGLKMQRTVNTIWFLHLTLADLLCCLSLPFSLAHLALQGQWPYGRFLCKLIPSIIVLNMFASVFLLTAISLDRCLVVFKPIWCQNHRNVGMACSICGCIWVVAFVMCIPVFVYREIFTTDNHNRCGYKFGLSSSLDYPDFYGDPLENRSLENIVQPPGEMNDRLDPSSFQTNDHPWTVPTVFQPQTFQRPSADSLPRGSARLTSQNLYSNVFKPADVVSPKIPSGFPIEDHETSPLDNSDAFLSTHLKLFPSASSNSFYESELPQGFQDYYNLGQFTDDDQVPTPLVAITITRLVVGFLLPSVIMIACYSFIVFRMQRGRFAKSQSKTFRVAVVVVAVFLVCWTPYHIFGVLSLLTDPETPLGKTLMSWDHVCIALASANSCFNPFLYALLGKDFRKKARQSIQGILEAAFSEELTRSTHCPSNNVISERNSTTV
# UniProt P41595, sequence (whole entry, looked up): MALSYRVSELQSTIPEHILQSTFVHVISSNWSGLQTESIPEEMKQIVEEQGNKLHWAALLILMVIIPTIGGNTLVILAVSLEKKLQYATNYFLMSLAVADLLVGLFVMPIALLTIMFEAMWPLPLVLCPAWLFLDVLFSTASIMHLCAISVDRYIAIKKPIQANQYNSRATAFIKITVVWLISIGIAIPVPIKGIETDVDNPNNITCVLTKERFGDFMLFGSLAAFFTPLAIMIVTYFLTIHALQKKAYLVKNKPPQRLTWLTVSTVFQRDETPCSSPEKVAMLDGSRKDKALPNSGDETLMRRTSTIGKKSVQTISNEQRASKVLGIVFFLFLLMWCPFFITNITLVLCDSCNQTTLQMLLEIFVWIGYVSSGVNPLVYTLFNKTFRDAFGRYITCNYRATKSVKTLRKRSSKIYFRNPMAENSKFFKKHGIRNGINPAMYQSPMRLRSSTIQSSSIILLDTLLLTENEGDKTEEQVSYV
Structure (SMILES),target or system,test,setting,measurement,value
CC(C)C[C@H](NC(=O)[C@@H](NC(=O)[C@@H](NC(=O)[C@H](CC(=O)O)NC(=O)[C@H](Cc1ccccc1)NC(=O)[C@H](CCC(N)=O)NC(=O)[C@@H](N)CCCCN)C(C)C)[C@@H](C)O)C(=O)N[C@@H](Cc1ccc(O)cc1)C(=O)N[C@@H](Cc1ccccc1)C(=O)O,"HLA class I histocompatibility antigen, A alpha chain",cell-free assay,,IC50,112 nM
CCC(C(=O)Nc1cc(NC2CNC2)ccc1C)n1cccc2nc(SCc3ccc(F)cc3)nc1-2 (stereo not drawn),"Serine protease 1 (PRSS1, Homo sapiens, UniProt P07477)","enzyme activity, inhibitor",,IC50,> 100000 nM
O=c1c2cc(Cl)ccc2[nH]c(=S)n1Cc1cncc(-c2nnn[nH]2)c1,4'-phosphopantetheinyl transferase PptT,"enzyme activity, inhibitor, FP",,IC50,1060 nM
COc1ncccc1-c1cnn2ccc(N3CCN(C(=O)OC(C)C)CC3)nc12,"CAMK1G (Homo sapiens, UniProt Q96NX5)","binding, competition with immobilised ligand",1 µM,remaining binding,82%
Ic1cccc(-c2noc(C[C@@H]3CN4CCC3CC4)n2)c1,"CHRNA9 (Homo sapiens, UniProt Q9UGM1)","ion current, agonist, two-electrode voltage clamp",oocytes,EC50,24300 nM
CSCC[C@H](NC(=O)[C@H](CCCNC(=N)N)NC(=O)[C@@H](N)C(C)C)C(=O)N[C@@H](CCCNC(=N)N)C(=O)N[C@@H](CC(C)C)C(=O)N[C@@H](CCCNC(=N)N)C(=O)N[C@@H](CCCCN)C(=O)N[C@@H](CC(C)C)C(=O)N[C@@H](CCCNC(=N)N)C(=O)N[C@@H](Cc1ccc(O)cc1)C(=O)N[C@@H](CO)C(=O)N[C@@H](Cc1ccccc1)C(=O)N[C@@H](Cc1ccccc1)C(=O)N[C@@H](CCCCN)C(=O)N1CCC[C@H]1C(=O)N1CCC[C@H]1C(=O)N[C@@H](CCC(=O)O)C(=O)O,TEAD4,"binding, SPR",pH 7.4,Kd,4180 nM
Nc1ncc(-c2nc(N3CCOCC3)nc(N3CCOCC3)n2)c(C(F)F)n1,"PIP5K1A (Homo sapiens, UniProt Q99755)","binding, competition with immobilised ligand",10 µM,remaining binding,100%
CC(C)[C@H](NC(=O)[C@H](Cc1ccccc1)NC(=O)[C@H](CCCNC(=N)N)NC(=O)[C@H](CC(=O)O)NC(=O)[C@H](Cc1ccc(O)cc1)NC(=O)[C@@H](NC(=O)[C@@H](N)CCCCN)C(C)C)C(=O)N[C@@H](Cc1c[nH]cn1)C(=O)N[C@@H](Cc1ccccc1)C(=O)O,"HLA class I histocompatibility antigen, A alpha chain",cell-free assay,,IC50,5.9 nM
O=C(O)C(F)(F)C(F)(F)C(F)(F)C(F)(F)C(F)(F)C(F)(F)C(F)(F)C(F)(F)C(F)(F)C(F)(F)F,"FABP4 (Homo sapiens, UniProt P15090)","ligand displacement, fluorescence",,Ki,1090 nM
COc1ccc2cccc(C(CO)CNC(=O)CF)c2c1 (stereo not drawn),"MTNR1B (Homo sapiens, UniProt P49286)","GTPγS binding, agonist, radiometric",cell membranes,EC50,0.794 nM
CSCC[C@H](NC(=O)[C@H](CO)NC(=O)[C@H](CC(C)C)NC(=O)[C@@H](NC(=O)[C@H](Cc1c[nH]cn1)NC(=O)[C@H](CCCCN)NC(=O)[C@H](Cc1ccccc1)NC(=O)[C@H](CCC(N)=O)NC(=O)[C@@H](N)CCCCN)[C@@H](C)O)C(=O)O,"HLA class I histocompatibility antigen, A alpha chain",cell-free assay,,IC50,286 nM
CN1CCC2=C(C1)c1ccccc1Cc1ccccc12,HTR1F,"G protein activation, agonist, BRET",,EC50,64.6 nM
CSCC[C@H](NC(=O)[C@H](Cc1ccccc1)NC(=O)CNC(=O)CNC(=O)[C@@H](N)Cc1ccc(O)cc1)C(=O)N[C@@H](CCCNC(=N)N)C(=O)N[C@@H](CCCNC(=N)N)C(=O)N[C@H](C(=O)NCC(=O)N[C@@H](CCCNC(=N)N)C(=O)N1CCC[C@H]1C(=O)N[C@@H](CCC(=O)O)C(=O)N[C@@H](Cc1c[nH]c2ccccc12)C(=O)N[C@@H](Cc1c[nH]c2ccccc12)C(=O)N[C@@H](CCSC)C(=O)N[C@@H](CC(=O)O)C(=O)N[C@@H](Cc1ccc(O)cc1)C(=O)N[C@@H](CCC(N)=O)C(=O)N[C@@H](CCCCN)C(=O)N[C@@H](CCCNC(=N)N)C(=O)N[C@@H](Cc1ccc(O)cc1)C(=O)NCC(=O)O)C(C)C,"MRGPRX2 (Homo sapiens, UniProt Q96LB1)","calcium signal, agonist",,EC50,7940 nM
CC[C@H](C)[C@H](NC(=O)[C@H](CCSC)NC(=O)[C@@H](N)CCCNC(=N)N)C(=O)N1CCC[C@H]1C(=O)N[C@@H](CCCCN)C(=O)N[C@H](C(=O)N[C@@H](Cc1ccccc1)C(=O)N[C@@H](Cc1c[nH]cn1)C(=O)N[C@@H](Cc1ccc(O)cc1)C(=O)O)[C@@H](C)O,"HLA class I histocompatibility antigen, A alpha chain",cell-free assay,,IC50,29 nM
c1ccc2nc(N3CCNCC3)ccc2c1,HTR1F,"G protein activation, agonist, BRET",,EC50,3160 nM
N#Cc1ccc(Cn2c(=S)[nH]c3ccc(Cl)cc3c2=O)cn1,4'-phosphopantetheinyl transferase PptT,"enzyme activity, inhibitor, FP",,IC50,540 nM
CC[C@H](C)[C@H](NC(=O)[C@@H]1CCCN1C(=O)[C@H](CCCCN)NC(=O)[C@@H]1CCCN1C(=O)[C@H](CCSC)NC(=O)[C@H](CCC(N)=O)NC(=O)[C@@H](N)Cc1ccc(O)cc1)C(=O)N[C@H](C(=O)N[C@@H](Cc1ccccc1)C(=O)O)[C@@H](C)O,"HLA class I histocompatibility antigen, A alpha chain",cell-free assay,,IC50,5810 nM
COc1cc(N2CC[C@@]3(O)C(=O)c4cc(C)c(C)cc4N=C23)ccn1,"Myosin-7 (MYH7, Bos taurus, UniProt Q9BE39)","ATPase activity, inhibitor",,Ki,17000 nM
N.N.[Cl][Pt][Cl],Toledo,"cell growth or viability, ATP luminescence",72 h,IC50,810 nM
CC[C@H]1CN2CC[C@@]3(C(=O)Nc4ccccc43)[C@@H]2C[C@@H]1/C(=C\OC)C(=O)OC,"PRDX3 (Homo sapiens, UniProt P30048)","binding, SPR",,Kd,1180 nM
CC[C@H](C)[C@H](NC(=O)[C@H](Cc1ccccc1)NC(=O)[C@@H]1CCCN1C(=O)CNC(=O)[C@H](Cc1ccc(O)cc1)NC(=O)[C@H](CCSC)NC(=O)[C@@H](N)CCCNC(=N)N)C(=O)N[C@@H](Cc1c[nH]cn1)C(=O)N[C@@H](Cc1ccccc1)C(=O)O,"HLA class I histocompatibility antigen, A alpha chain",cell-free assay,,IC50,286 nM
CC(C)C[C@H](NC(=O)[C@@H](N)[C@@H](C)O)C(=O)N[C@@H](CCC(N)=O)C(=O)N1CCC[C@H]1C(=O)N1CCC[C@H]1C(=O)N[C@@H](C)C(=O)N[C@@H](CO)C(=O)N[C@@H](CO)C(=O)N[C@@H](CCCNC(=N)N)C(=O)N[C@H](CCCNC(=N)N)C(=O)N[C@@H](CCCNC(=N)N)C(=O)N[C@@H](Cc1c[nH]cn1)C(=O)N[C@@H](Cc1ccccc1)C(=O)N[C@@H](Cc1c[nH]cn1)C(=O)N[C@@H](Cc1c[nH]cn1)C(=O)N[C@@H](C)C(=O)N[C@@H](CC(C)C)C(=O)N1CCC[C@H]1C(=O)N1CCC[C@H]1C(=O)N[C@@H](C)C(=O)N[C@@H](CCCCNC(=N)N)C(=O)O,"C3AR1 (Homo sapiens, UniProt Q16581)","β-arrestin recruitment, agonist, BRET",,EC50,511 nM
CSCC[C@H](NC(=O)[C@@H]1CCCN1C(=O)[C@@H](N)C(C)C)C(=O)N[C@@H](CCCNC(=N)N)C(=O)N[C@@H](CC(C)C)C(=O)N[C@@H](CCCNC(=N)N)C(=O)N[C@@H](CCCCN)C(=O)N[C@@H](CCSC)C(=O)N1CCC[C@H]1C(=O)N[C@@H](C)C(=O)N[C@@H](CO)C(=O)N[C@@H](Cc1ccccc1)C(=O)N[C@@H](Cc1ccccc1)C(=O)N[C@@H](CCCCN)C(=O)N1CCC[C@H]1C(=O)N1CCC[C@H]1C(=O)N[C@@H](CCC(=O)O)C(=O)O,TEAD4,"binding, SPR",pH 7.4,Kd,47800 nM
Cc1nn(C)cc1-c1nc2c(N3CCN(Cc4ccc(Cl)cc4)CC3)c(Cl)cnc2[nH]1,"TLK2 (Homo sapiens, UniProt Q86UE8)","binding, competition with immobilised ligand",1 µM,remaining binding,92%
[2H]c1c([2H])c([C@]2([2H])CCCN2C(=O)C(C)(C)Oc2ccc3cn[nH]c3c2)c([2H])c([2H])c1C([2H])([2H])[2H],"MARK1 (Homo sapiens, UniProt Q9P0L2)","binding, competition with immobilised ligand",1 µM,remaining binding,82%
CC[C@H](NC(=O)OCc1ccccc1)C(=O)N[C@H](C(=O)N[C@@H](Cc1ccccc1)C(=O)N(C)N(C#N)CCC(N)=O)C(C)(C)C,"Cathepsin B (CTSB, Homo sapiens, UniProt P07858)","enzyme activity, inhibitor",,Ki,36.3 nM
OC[C@@]12C[C@@H]1[C@@H](n1cnc3c(NCc4ccccc4)nc(Cl)nc31)[C@H](O)[C@@H]2O,"HTR2B (Homo sapiens, UniProt P41595)","ligand displacement, radioligand",,Ki,1750 nM
